Assay results pooled from the literature.
Compare with care: the assays were run in different laboratories. Several values in a cell are separate wells, animals, samples, runs or records.
Target: Tyrosine-protein kinase receptor UFO (AXL, Homo sapiens, UniProt P30530)

| SMILES | test | conditions | scale | measurement | value |
| --- | --- | --- | --- | --- | --- |
| C=CC(=O)Nc1cccc(-c2cnc3[nH]cc(C(=O)NC(C)(C)C)c3n2)c1 | kinase activity | 0.1 µM | – | inhibition | 28% and 26% |
| Cc1cccc(O[C@H]2CCC[C@@H](C(C)CNCc3ccncc3)C2)c1 (relative stereo) | cell-free assay | 1 µM | – | inhibition | 5% |
| C[C@H]1CN(C(=O)c2cn(-c3ccnc(N)n3)c3cc(C#CC4(O)CCCCC4)ccc23)CCN1 | enzyme activity, inhibitor, FRET | 1 µM | – | inhibition | -2% |
| COc1ccc(O)cc1-c1c[nH]c2ncc(-c3cncc(C(=O)N(C)C)c3)cc12 | binding, competition with immobilised ligand | 0.2 µM | – | inhibition | 11.3% |
| COc1cc(Nc2nc(C)cc(-c3cnn4nc(OC)ccc34)n2)cc(C(F)(F)F)c1 | inhibitor | 1 µM | baseline: control | remaining activity | 100% |
| NC(=O)[C@@H](O)C[C@H]1CCc2sc3ncnc(O[C@H]4CC[C@H](N5CCOCC5)CC4)c3c21 | enzyme activity, inhibitor | 10 µM | – | inhibition | 15% |
| CNC1C[S+]2CC[S+]3CC[S+](C1)[Ru-4]321([N]=C=S)[n]2c3ccc(OC)cc3c3c4c(c5cc(F)c[n+]1c5c32)C(=O)NC4=O (stereo not shown) | KinomeScan | 0.1 µM | baseline: untreated | remaining binding | 95% |
| C=CC(=O)N1CCCC(n2c(=O)c3ncccc3n(Cc3ccc(Oc4ccccc4)cc3)c2=O)C1 (stereo not shown) | cell-free assay, competition with immobilised ligand | 1 µM | – | remaining binding | 84% |
| COc1c(Cl)cccc1Nc1c(-c2ccncc2C#C[C@@]2(C)CCCN2C(=O)/C=C/CN(C)C)[nH]c2c1C(=O)NCC2 | binding, competition with immobilised ligand | 3 µM | – | remaining binding | 100% |
| CN1CCN(Cc2ccc(NC(=O)c3cccc(C#Cc4cnc(N)c5ncccc45)c3)cc2C(F)(F)F)CC1 | cell-free assay, competition with immobilised ligand | 0.5 µM | – | remaining binding | 0.4% |
| COc1c(OCCCN2CCOCC2)ccc2c1N=C(NC(=O)c1cnc(N)nc1)N1CCN=C21 | kinase activity, inhibitor | 1 µM | baseline: untreated control | remaining activity | 91% |
| CCn1cc(C(=O)O)c(=O)c2c(N)c(F)c(NC3CCCCC3)cc21 | kinase activity | 0.1 µM, added: ATP at Km | – | inhibition | 5.6% |
| CCN1CCN(Cc2ccc(C(=O)Nc3ccc(C)c(NCc4cnc5[nH]ccc5c4OC)c3)cc2C(F)(F)F)CC1 | binding, competition with immobilised ligand | 1 µM | – | remaining binding | 60% |
| Nc1ncc(-c2cc(-c3cnn(CC(F)(F)F)c3)ncc2F)nc1C(=O)NC1CNCC(F)C1 (stereo not shown) | enzyme activity | 1 µM | baseline: DMSO control | remaining activity | 48.5% |
| O=C(Nc1ccc(Oc2ncnc3[nH]cc(-c4ccccc4)c23)c(F)c1)c1c2n(n(-c3cc(F)ccc3F)c1=O)CCCC2 | enzyme activity, inhibitor | 0.5 µM | – | inhibition | 93% |
| Cc1[nH]nc2c1N=C(c1ccccc1Cl)c1cnc(N3CCOCC3)cc1N2 | enzyme activity, inhibitor | 0.5 µM | – | inhibition | 5.1% |
| Cc1cnc2nc1Nc1cccc(c1)COC/C=C/COCc1cc(ccc1OCCN1CCOCC1)N2 | binding | 0.1 µM | – | remaining binding | 44% |
| COc1ccc(NC(=O)Nc2ccc3c(c2)C(=O)N(C(C)CO)CC(C)C(CN(C)Cc2ccc4c(c2)OCO4)O3)cc1 (stereo not shown) | kinase activity, KinaseProfiler | 0.03 µM, species human | baseline: control | remaining activity | 94% |
| CNC(=O)C1CCN(c2cc(C)c(F)cc2NC(=O)c2ccc(-c3cc(O)ccc3C)c(C)c2)CC1 | binding, competition with immobilised ligand | 1 µM | – | remaining binding | 65% |

A few entries again:
| SMILES | test | conditions | scale | measurement | value |
| --- | --- | --- | --- | --- | --- |
| Cc1cccc(O[C@H]2CCC[C@@H](C(C)CNCc3ccncc3)C2)c1 (relative stereo) | cell-free assay | 1 µM | – | inhibition | 5% |
| Nc1ncc(-c2cc(-c3cnn(CC(F)(F)F)c3)ncc2F)nc1C(=O)NC1CNCC(F)C1 (stereo not shown) | enzyme activity | 1 µM | baseline: DMSO control | remaining activity | 48.5% |
| COc1c(Cl)cccc1Nc1c(-c2ccncc2C#C[C@@]2(C)CCCN2C(=O)/C=C/CN(C)C)[nH]c2c1C(=O)NCC2 | binding, competition with immobilised ligand | 3 µM | – | remaining binding | 100% |
